Assay results collected from several papers.
Each line is one published result; not all experiments were run side by side.
rep main protease: Replicase polyprotein 1ab, main protease (rep, Severe acute respiratory syndrome coronavirus 2, UniProt P0DTD1)

Structure (SMILES)	tested on	test	system	conditions	scale	endpoint	value
CCCCOc1cc(C(=O)NCCN(CC)CC)c2ccccc2n1	SARS-CoV-2	viral replication, high-content imaging screen		cell-based		EC50	29.5 µM
CCN(CC)CCCNC(=O)c1ccc(-c2nc(CN3CCc4ccccc43)c(C)o2)cc1	SARS-CoV-2	cytopathic effect, cell-based CPE	USA_WA1/2020			AC50	14.1 µM
Cc1ccc(-c2nc3c(nc2-c2ccc(C)cc2)N(CCCCCCC(=O)O)CCC3)cc1	SARS-CoV-2	viral replication, GFP plate reader screen	BetaCov/Belgium/GHB-03021/2020	cell-based		EC50	17.4 µM
CCCCN(CCCNC(=O)c1cc(Nc2ccc(OC)c(OC)c2)nc2ccccc12)Cc1ccccc1	SARS-CoV-2	cytopathic effect	USA_WA1/2020	retest, 8-point, duplicates		efficacy	11.9%
C[C@H](NC(=O)C(=O)Nc1ccccc1C(C)(C)C)C(=O)N[C@@H](CC(=O)O)C(=O)COc1c(F)c(F)cc(F)c1F	rep main protease	reporter gene (Gaussia luciferase), inhibitor		20 µM		inhibition	0.108%
CC[C@@H]([C@H](C)O)n1ncn(-c2ccc(N3CCN(c4ccc(OC[C@@H]5CO[C@@](Cn6cncn6)(c6ccc(F)cc6F)C5)cc4)CC3)cc2)c1=O	SARS-CoV-2	viral replication, GFP plate reader screen		cell-based		EC50	> 100 µM
CCN(CC)CCCNC(=O)CSc1c2c(nc3cc(Cl)ccc13)CCCC2	SARS-CoV-2	cytopathic effect	USA_WA1/2020	round 2, 5-point		efficacy	95.5%
COc1ccc(C[C@@H]2c3cc(Oc4cc(C[C@@H]5c6cc(O)c(OC)cc6CCN5C)ccc4O)c(OC)cc3CCN2C)cc1	SARS-CoV-2	viral cytopathic effect	Vero E6	3.125 µM		mean inhibition	0%
Cn1cnc(Cn2c(=O)[nH]/c(=N\c3cc4cn(C)nc4cc3Cl)n(Cc3cc(F)c(F)cc3F)c2=O)n1			human, severe renal impairment	oral, 375 mg, decreased GFR TEAE, mild severity		patients with adverse event	0%
CC[C@H](C)[C@H](NC(=O)[C@H](CC(C)C)NC(=O)[C@H](Cc1c[nH]c2ccccc12)NC(=O)[C@H](CCC(N)=O)NC(=O)[C@@H](NC(=O)[C@H](Cc1ccccc1)NC(=O)[C@H](C)NC(=O)[C@H](CCCCNC(=O)COCCOCCNC(=O)COCCOCCNC(=O)CC[C@H](NC(=O)CCCCCCCCCCCCCCCCCCC(=O)O)C(=O)O)NC(=O)[C@H](CCC(N)=O)NC(=O)[C@H](C)NC(=O)[C@@H](NC(=O)[C@H](CCCCN)NC(=O)[C@H](CC(=O)O)NC(=O)[C@H](CC(C)C)NC(=O)C(C)(C)NC(=O)[C@@H](NC(=O)[C@H](CO)NC(=O)[C@H](Cc1ccc(O)cc1)NC(=O)[C@H](CC(=O)O)NC(=O)[C@H](CO)NC(=O)[C@@H](NC(=O)[C@H](Cc1ccccc1)NC(=O)[C@@H](NC(=O)CNC(=O)[C@H](CCC(=O)O)NC(=O)C(C)(C)NC(=O)[C@@H](N)Cc1ccc(O)cc1)[C@@H](C)O)[C@@H](C)O)[C@@H](C)CC)[C@@H](C)CC)C(C)C)C(=O)N[C@@H](C)C(=O)NCC(=O)NCC(=O)N1CCC[C@H]1C(=O)N[C@@H](CO)C(=O)N[C@@H](CO)C(=O)NCC(=O)N[C@@H](C)C(=O)N1CCC[C@H]1C(=O)N1CCC[C@H]1C(=O)N1CCC[C@H]1C(=O)N[C@@H](CO)C(N)=O		refers to: treatment-emergent vessel puncture site bruise	healthy subjects	4.5 mg, multiple ascending dose		subjects with adverse event	16.7%
CC(C)=CCc1c(O)ccc(C(=O)/C=C/c2ccc(O)cc2)c1O	SARS-CoV-2	cytopathic effect	Vero E6	3.125 µM, replicate run		mean inhibition	0%
CC(=O)N[C@@H](CC(C)C)C(=O)N[C@@H](CC(C)C)C(=O)N[C@H](C=O)CCCN=C(N)N.CC(=O)N[C@@H](CC(C)C)C(=O)N[C@@H](CC(C)C)C(=O)N[C@H](C=O)CCCN=C(N)N.O=S(=O)(O)O	rep main protease	reporter gene (mKate2), inhibitor		20 µM		inhibition	-0.884%
O=C1CC2(CCCC2)CC(=O)N1CCCCN1CCN(c2nsc3ccccc23)CC1	SARS-CoV-2	viral replication, high-content imaging screen		cell-based		EC50	> 100 µM
O=C(/C=C/c1ccc(O)c(O)c1/C=C/c1ccc(O)c(O)c1)O[C@H](Cc1ccc(O)c(O)c1)C(=O)O	SARS-CoV-2	cytopathic effect	Vero E6	50 µM, replicate run		mean inhibition	16.7%
Nc1ncnc2c([C@@H]3N[C@H](CO)[C@@H](O)[C@H]3O)c[nH]c12	Marburg virus	viral replication	HeLa, Angola	400 µM		inhibition	99.7%
CC(C)(C)[C@H](NC(=O)C(F)(F)F)C(=O)N1C[C@H]2[C@@H]([C@H]1C(=O)N[C@H](C#N)C[C@@H]1CCNC1=O)C2(C)C	SARS-CoV-2	viral replication, infectious virus	Vero E6	1.25 µM		inhibition	25.8%
CNC(=O)[C@@H](NC(=O)[C@H](CC(C)C)[C@H](O)C(=O)NO)C(C)(C)C	C2C12	cell viability		100 µM, with: snake venom	baseline: venom alone	viability difference	-14.6%
COc1ccc(-c2cn3c(n2)sc2cc(C(=O)NCCCN4CCCCCC4)ccc23)cc1	SARS-CoV-2	cytopathic effect	USA_WA1/2020	retest, 8-point, duplicates		efficacy	70.6%

Repeated from above:
Structure (SMILES)	tested on	test	system	conditions	scale	endpoint	value
CC(C)=CCc1c(O)ccc(C(=O)/C=C/c2ccc(O)cc2)c1O	SARS-CoV-2	cytopathic effect	Vero E6	3.125 µM, replicate run		mean inhibition	0%
